Results of several laboratories.
Parts stem from different laboratories: compare values within a part only.

Study 1
Target: RING finger protein unkempt homolog, zinc fingers 1-6, GST-SBP tag (UNK, Homo sapiens, UniProt Q9C0B0, residues 30-357)
Technique: RNA Bind-n-Seq
Molecule type: RNA
Medium: in vitro
Concentration: not given
Notes: RNA with constant flanks, human and mouse sites, ends assumed
Relative to: input RNA pool
Direction: higher = stronger binding
Construct (chain): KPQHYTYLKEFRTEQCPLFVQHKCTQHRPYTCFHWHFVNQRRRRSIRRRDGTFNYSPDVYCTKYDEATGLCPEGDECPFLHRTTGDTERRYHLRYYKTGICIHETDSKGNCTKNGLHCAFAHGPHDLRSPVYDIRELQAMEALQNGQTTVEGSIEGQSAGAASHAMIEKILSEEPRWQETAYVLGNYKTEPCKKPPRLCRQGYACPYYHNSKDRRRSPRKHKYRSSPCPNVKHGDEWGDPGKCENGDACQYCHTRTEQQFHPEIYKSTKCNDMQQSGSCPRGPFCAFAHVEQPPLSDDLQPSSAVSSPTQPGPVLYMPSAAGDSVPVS
For `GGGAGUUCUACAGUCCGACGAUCGCUAUGCAAGCCUUAACUCUUCUGGGAGCAUGUGUAUCAAACUGUGGCAAAAUUUUUCACUUAGAAGUAUGUUCAAGAGACUUUGCUAGUGAAGUAAGCAAUGUAUUAAAUAAGGGUCAUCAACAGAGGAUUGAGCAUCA`, the bound/input enrichment was 1.5 ratio.
The bound/input enrichment of `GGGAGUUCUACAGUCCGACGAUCGCCUUAUAUAGCAACAUACUUGGUGAGGAAAACACCUACCUGUGGCGCACAUCACUGUAUUUAGCUUCUUCUGCCAGUGCUGAAUUCUUCGCUGACAUUGCCCUGGCUCCUAUGGAAGCUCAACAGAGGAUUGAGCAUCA` is reported as 0.3 ratio.
`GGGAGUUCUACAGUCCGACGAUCAUAAAGACCGAGCAGUACAAAACAGGUCACCACUCGCCUCGAGGACAAACGUUGGAUAGCAUAGACCCUGUGGCCAGGGGUCCCAGCCCCCUGAGUUCUCACAUCAGCCCCGGCAGCUCCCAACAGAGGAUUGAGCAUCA` has a bound/input enrichment of 0.153 ratio.
For `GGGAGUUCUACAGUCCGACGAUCGUGUCAAGAGAUUACAAGGCUCUAAGGGAUGGAAAUAAACUGGCACAGAUGGAAGAAGCUCCACUUUUCCCAGGAGAAUCAAUUAAGGCCAUUGUGAAAGACGUCAUUUAUAUCUGUCCACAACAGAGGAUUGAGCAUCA`, the bound/input enrichment was 0.116 ratio.
With `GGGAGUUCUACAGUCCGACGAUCCAGUGCCGGGAAGGAACUGCCGGGACUCACCGAGCUGCACUUAACUGUUCUCUUUCUGGCUAUUUUUUGUUGUUUGUUUCUUUGUGUUGACUUUGUCCCUGGCAAAAUUUUCCACUCUGACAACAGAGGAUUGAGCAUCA` the bound/input enrichment was 0.231 ratio.
With `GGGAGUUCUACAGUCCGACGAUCGAUGAGUUGCUCCUGAUUGGUCAUUGGGUUUGGGUGAGGCCUGGAGGCUUCAGAGGUGAAUUUAUGCUUGGGAAGCCUGAUCCCAAACCUGAAGGGAAGGGACUUGGAUCUCCUUAUAUUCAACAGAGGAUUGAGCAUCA` the bound/input enrichment was 0.313 ratio.
The bound/input enrichment of `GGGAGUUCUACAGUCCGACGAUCGCAACUCUCAUCUUCUUCCUUCUGGCACAAGUCUCUUGGGCUGGACCAUUUGAACAGAGAGGCUUAUUUGACUUCAUGCUAGAAGAUGAGGCUUCUGGCAUAAUCCCUUAUGACCCUGACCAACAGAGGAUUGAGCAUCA` is reported as 0.151 ratio.
With `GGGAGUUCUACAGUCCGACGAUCAGGGCCCCGGCAAGAAGUGCGCCAAGCUCAAGGCGCCUGCGGGCAAGGCGGGCGCGGGCAAGGCGGCGCAGCCGGGGGACUGCGCCGCGGGCAAGGCAGCCAAGUGCGUCUUCCUGGACGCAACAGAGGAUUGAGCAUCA` the bound/input enrichment was 0.275 ratio.
For `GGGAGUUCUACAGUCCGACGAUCCGGCGGCUGGGUGAGGGCUGCUGGUGUCGCGUUUGAGGAGAACUGCGAGUGUGUUUGGCAUAUCCCCGUCAGGAUCCCAGCUACGAUGAGUGCUGCCCGGGAGUCUCACCCGCACGGGGUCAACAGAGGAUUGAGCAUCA`, the bound/input enrichment was 0.119 ratio.
For `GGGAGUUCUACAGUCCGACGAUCGGAGCUUUACCCCCUGACCUCAGCUACAUCGUUCGAGCUAGGCAUGGUGGUGAGGACUACGUAUUUUCCCUGCUCACUGGCUACUGUGAGCCCCCCACUGGGGUGUCAUUGCGAGAAGGCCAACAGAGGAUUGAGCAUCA`, the bound/input enrichment was 0.0792 ratio.
For `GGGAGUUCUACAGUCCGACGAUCCCCACUGCUAUUCAAGCUCAGGGCUGGCCAGUUGCUCUCAGUGGAUUGGAUAUGGUUGGAGUAGCUCAGACUGGAUCUGGGAAAACAUUAUCUUAUUUGCUGCCUGCCAUUGUACACAUACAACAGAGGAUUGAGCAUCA`, the bound/input enrichment was 0.377 ratio.

Study 2
Target: Interferon regulatory factor 7, full length, phosphomimetic (IRF7, Homo sapiens, UniProt Q92985, residues 1-503, S471D/S472D/S475D/S476D/S477D/S483D/S484D/S487D)
Technique: protein-binding microarray
Molecule type: double-stranded DNA, one strand shown
Medium: in vitro
Concentration: 2200 nM top
Notes: 60-bp whole probe
With: salmon DNA 0.4 mg/ml
Relative to: random background probes
Direction: higher = stronger binding
Constant ends, left off below: GCCTAGCAC … GTCTTGATTCGCTTGACGCTGCTG
Target sequence (chain): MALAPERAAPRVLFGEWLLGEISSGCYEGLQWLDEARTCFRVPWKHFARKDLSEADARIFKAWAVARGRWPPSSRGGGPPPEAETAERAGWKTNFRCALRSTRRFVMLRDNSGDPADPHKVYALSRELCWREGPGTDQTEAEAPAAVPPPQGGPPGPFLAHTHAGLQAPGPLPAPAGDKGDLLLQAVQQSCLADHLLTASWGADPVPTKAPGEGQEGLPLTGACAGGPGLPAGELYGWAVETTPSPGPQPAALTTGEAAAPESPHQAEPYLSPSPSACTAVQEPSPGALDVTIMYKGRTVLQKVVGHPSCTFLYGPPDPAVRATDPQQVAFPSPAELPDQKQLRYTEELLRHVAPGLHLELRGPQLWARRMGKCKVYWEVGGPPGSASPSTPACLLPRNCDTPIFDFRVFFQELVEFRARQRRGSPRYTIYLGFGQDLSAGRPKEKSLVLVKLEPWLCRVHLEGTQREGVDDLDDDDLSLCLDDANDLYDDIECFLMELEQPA
For `GACGAGCTGAGTCTCGAGACGTGCTAG`, “fitted relative affinity” read -0.253 z-score.
For `TCATTTTCCTACATCAGACTGTGCTAG`, “fitted relative affinity” read 3.01 z-score.
`TCAAGTGTGCCATATTTAACTGTGCTA`: “fitted relative affinity” 0.00618 z-score.
Under “fitted relative affinity”, `GACGGTCTCCTACAGCTGACGTGCTAG` is recorded as 0.771 z-score.
`CTCACCTCAGCCTCCCAAGTGTGCTAG`: “fitted relative affinity” 0.544 z-score.
For `GACGCTTCCAGTTTCGAGACGTGCTAG`, “fitted relative affinity” read 4.42 z-score.
Under “fitted relative affinity”, `GACGGACTGGACACTGGGGCCGTGCTA` is recorded as -0.83 z-score.
`GACGGTTTCCTTATCGTGACGTGCTAG` — result for “fitted relative affinity”: 2.45 z-score.
Under “fitted relative affinity”, `TCACTTTCCTTCTTGATACTGTGCTAG` is recorded as 5.82 z-score.
Under “fitted relative affinity”, `TATTCCCCATCACTCACTCTGTGCTAG` is recorded as 2.4 z-score.
Under “fitted relative affinity”, `TTAGGTATCGTACTGCTTTAGTGCTAG` is recorded as 0.771 z-score.
`ATTGCTTCCTCTTTACTGCTGTGCTAG`: “fitted relative affinity” 3.08 z-score.
Under “fitted relative affinity”, `TATTGTGTCAACTTTCTCTGCGTGCTA` is recorded as 1.05 z-score.
`GACCGTTTCGGACTGGGGACGTGCTAG`: “fitted relative affinity” 2.27 z-score.
For `TTAGGTATCCTTCTACTTTAGTGCTAG`, “fitted relative affinity” read 0.779 z-score.
`GACGGTTGCGGACTGGGGACGTGCTAG`: “fitted relative affinity” -0.41 z-score.
For `TTAGGTTTCGACACTGGGTTAGTGCTA`, “fitted relative affinity” read 2.27 z-score.
For `TTAGGTATCGGGACTGGGTAAGTGCTA`, “fitted relative affinity” read -0.468 z-score.

Study 3
Target: Sal-like protein 4, full length isoform A (SALL4, Homo sapiens, UniProt Q9UJQ4, residues 1-1053)
UniProt Q9UJQ4, sequence (whole entry, looked up): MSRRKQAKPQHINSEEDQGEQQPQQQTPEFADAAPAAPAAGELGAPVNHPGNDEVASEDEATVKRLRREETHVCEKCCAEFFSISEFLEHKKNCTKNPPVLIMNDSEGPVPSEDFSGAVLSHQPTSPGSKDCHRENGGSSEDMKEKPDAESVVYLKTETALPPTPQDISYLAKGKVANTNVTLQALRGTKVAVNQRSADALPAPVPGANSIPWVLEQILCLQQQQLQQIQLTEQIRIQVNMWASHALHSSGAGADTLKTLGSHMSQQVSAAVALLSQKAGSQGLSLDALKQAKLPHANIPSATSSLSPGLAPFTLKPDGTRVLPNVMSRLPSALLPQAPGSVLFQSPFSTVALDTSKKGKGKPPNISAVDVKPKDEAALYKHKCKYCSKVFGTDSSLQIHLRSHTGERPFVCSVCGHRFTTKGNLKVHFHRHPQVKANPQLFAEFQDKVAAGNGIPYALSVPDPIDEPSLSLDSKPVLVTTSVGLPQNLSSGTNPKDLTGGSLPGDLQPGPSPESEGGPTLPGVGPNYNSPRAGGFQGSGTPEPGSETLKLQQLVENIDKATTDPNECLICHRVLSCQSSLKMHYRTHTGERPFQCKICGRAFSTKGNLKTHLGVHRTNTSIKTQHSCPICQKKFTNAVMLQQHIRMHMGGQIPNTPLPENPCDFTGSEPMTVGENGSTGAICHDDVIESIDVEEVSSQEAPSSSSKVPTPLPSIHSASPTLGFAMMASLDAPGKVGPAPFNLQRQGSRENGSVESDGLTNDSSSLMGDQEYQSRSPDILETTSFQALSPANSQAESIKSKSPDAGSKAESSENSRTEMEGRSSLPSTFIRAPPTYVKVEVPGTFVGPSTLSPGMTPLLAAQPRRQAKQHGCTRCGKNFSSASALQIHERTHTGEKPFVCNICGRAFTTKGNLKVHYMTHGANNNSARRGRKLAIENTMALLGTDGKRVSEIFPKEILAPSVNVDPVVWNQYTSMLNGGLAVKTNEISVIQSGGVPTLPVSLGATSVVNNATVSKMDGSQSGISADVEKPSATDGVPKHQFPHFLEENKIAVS
Technique: universal PBM
Molecule type: double-stranded DNA, one strand shown
Medium: in vitro
Concentration: 600 nM
Notes: 8-mer, flanks averaged, mean of replicates
Direction: higher = stronger binding
The E-score of `GTCAGTGA` is reported as 0.0307.
For `ACTAACGG`, the E-score was -0.0657.
The E-score of `TAAGTTCA` is reported as 0.0957.
For `GCCCGATA`, the E-score was -0.0612.
For `CTAAAAGC`, the E-score was -0.216.
`TAGAGTGA` has an E-score of 0.0775.
`GCGCCGCA` has an E-score of -0.28.
`CGGCGAAC` gave an E-score of -0.122.
For `CGGAAGAC`, the E-score was -0.152.
The E-score of `ACCACAGC` is reported as -0.276.
With `CATGTTCG` the E-score was 0.0115.
The E-score of `ACATGGAA` is reported as 0.176.
`GGTTCGCA` has an E-score of -0.173.
The E-score of `GCTATTAA` is reported as 0.209.
`GGCAATCA` gave an E-score of 0.0115.
The E-score of `CAGTAAAG` is reported as 0.0794.
`CAGCGCGG` has an E-score of -0.357.
With `GCAGGATA` the E-score was -0.125.
The E-score of `AGACCCGG` is reported as -0.328.
`ACTTCGGC` gave an E-score of -0.0983.
`ACTTTGAA` gave an E-score of 0.199.
With `GCTACTTA` the E-score was 0.0555.
`CATGGTTC` has an E-score of -0.108.
With `CAATTACA` the E-score was 0.275.
The E-score of `TCATAAGA` is reported as 0.34.

Study 4
Target: Ras GTPase-activating protein-binding protein 1, C-terminal RGG region (G3BP1, Homo sapiens, UniProt Q13283)
UniProt Q13283, sequence (whole entry, looked up): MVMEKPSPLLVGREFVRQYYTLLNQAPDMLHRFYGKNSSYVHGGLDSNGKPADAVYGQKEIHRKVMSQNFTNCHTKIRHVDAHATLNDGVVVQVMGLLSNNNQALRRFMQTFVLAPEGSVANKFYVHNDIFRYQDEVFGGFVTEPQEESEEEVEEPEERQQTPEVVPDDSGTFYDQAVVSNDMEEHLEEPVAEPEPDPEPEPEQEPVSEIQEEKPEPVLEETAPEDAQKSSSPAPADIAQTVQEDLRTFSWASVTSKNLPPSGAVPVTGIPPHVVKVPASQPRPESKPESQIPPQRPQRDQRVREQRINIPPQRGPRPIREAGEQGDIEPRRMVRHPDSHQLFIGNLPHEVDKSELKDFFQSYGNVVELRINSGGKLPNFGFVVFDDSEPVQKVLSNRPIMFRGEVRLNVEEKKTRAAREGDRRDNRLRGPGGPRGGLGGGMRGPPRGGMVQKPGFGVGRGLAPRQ
Technique: RNA Bind-n-Seq
Molecule type: RNA
Medium: in vitro
Concentration: 1 µM
Notes: whole 134-nt RNA, ends assumed
With: 150 mM KCl
Relative to: input library
Direction: higher = stronger binding
With `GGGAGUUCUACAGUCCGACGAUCAAGUCCUGUGCUACACAUCGUAUGUACCGAAUCGGGAAAGGGAGGGAAAAAAAGGGAAAGUAUUAUGUUACGCCGUUCGGAUCUGCACUUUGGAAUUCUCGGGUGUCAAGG` the log2 enrichment was -0.135.
For `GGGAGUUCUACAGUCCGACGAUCCUGUGCUACACAUCGUAUGUACCGAAUCGGGGUUUUUUUGGGGUUUUUUUGGUUUUUUUGGGAAAGUAUUAUGUUACGCCGUUCGGAUCUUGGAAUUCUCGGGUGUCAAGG`, the log2 enrichment was -1.22.
`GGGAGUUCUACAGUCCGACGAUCCCUGUGCUACACAUCGUAUGUACCGAAUCAAACCCCCCCAAAUUUUUUUAAAUUUUUAAAAAAGUAUUAUGUUACGCCGUUCGGAUCUGCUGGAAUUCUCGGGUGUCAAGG` has a log2 enrichment of -1.14.
For `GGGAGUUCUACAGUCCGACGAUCUCAAGUCCUGUGCUACACAUCGUAUGUACCGAAUCGGGUUGGGUUGGGUUGGGGAAAGUAUUAUGUUACGCCGUUCGGAUCUGCACUUCCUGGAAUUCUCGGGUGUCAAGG`, the log2 enrichment was 2.9.
`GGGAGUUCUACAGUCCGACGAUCUCUUGUAUGACUUAACCCCUGUUUCUAAUACAGGGGCCGCUCUCCUCAGCCUCCUGCUGAAGAGGAUGAAGAUGACUUUGAUGAUACCCUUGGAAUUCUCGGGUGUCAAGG` gave a log2 enrichment of -0.717.
The log2 enrichment of `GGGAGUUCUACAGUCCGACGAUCUCCUGUGCUACACAUCGUAUGUACCGAAUCAAACCCCCCCAAACCCAAACCCCCCCAAAAAAGUAUUAUGUUACGCCGUUCGGAUCUGCAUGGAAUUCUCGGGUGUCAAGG` is reported as -0.662.
For `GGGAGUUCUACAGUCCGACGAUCCCUGUGCUACACAUCGUAUGUACCGAAUCGGUUUUUUUGGUUUUUUUGGGUUUUUUUGGGAAAGUAUUAUGUUACGCCGUUCGGAUCUGCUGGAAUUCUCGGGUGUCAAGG`, the log2 enrichment was -1.86.
With `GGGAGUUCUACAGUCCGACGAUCAGUCCUGUGCUACACAUCGUAUGUACCGAAUCGGGAAAAAAAGGGUUUGGGAAAGGGAAAGUAUUAUGUUACGCCGUUCGGAUCUGCACUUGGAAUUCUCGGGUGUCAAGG` the log2 enrichment was 0.505.
For `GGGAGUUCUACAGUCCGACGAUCCAAGUCCUGUGCUACACAUCGUAUGUACCGAAUCGGCCCGGGCCCGGGCCCGGGGAAAGUAUUAUGUUACGCCGUUCGGAUCUGCACUUCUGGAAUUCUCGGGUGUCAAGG`, the log2 enrichment was -1.75.
The log2 enrichment of `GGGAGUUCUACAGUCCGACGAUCGUCCUGUGCUACACAUCGUAUGUACCGAAUCGGGUUUUUUUGGGAAAAAGGGUUUGGGAAAGUAUUAUGUUACGCCGUUCGGAUCUGCACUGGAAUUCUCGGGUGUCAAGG` is reported as -0.363.

For quick reference, copied from above (study 3):
The E-score of `CAGTAAAG` is reported as 0.0794.
`CAGCGCGG` has an E-score of -0.357.
With `GCAGGATA` the E-score was -0.125.
The E-score of `AGACCCGG` is reported as -0.328.
`ACTTCGGC` gave an E-score of -0.0983.
`ACTTTGAA` gave an E-score of 0.199.
With `GCTACTTA` the E-score was 0.0555.
